Measured values collected from several papers.
Protocols differ between the studies behind these lines. Numbers after ± are the reported error.
Oprd1: Delta-type opioid receptor (Oprd1, Rattus norvegicus, UniProt P33533)
Aminopeptidase N: Aminopeptidase N (Neisseria meningitidis, UniProt Q9JYV4)

Cc1ncsc1-c1ccc([C@H](C)NC(=O)[C@@H]2C[C@@H](O)CN2C(=O)[C@@H](NC(=O)CN2CCC(CN3CCN(CCC(=O)N4CCN(c5ncc(-c6cc(NC(=O)c7ccc(F)cc7C(F)(F)F)c(N7C[C@@H](C)N(C)[C@@H](C)C7)cc6F)cn5)CC4)CC3)CC2)C(C)(C)C)cc1 — degradation (WD repeat protein WDS (Spodoptera frugiperda, UniProt A0A2H1VC02); degrader, targeted LC-MS; Sf9; 10 µM, 24 h): 64 to 67%
CC1CN1c1cc(O)c2nc(N)sc2c1 (stereo not shown) — covalent engagement (Histone-lysine N-methyltransferase NSD2, SET domain (NSD2, Homo sapiens, UniProt O96028); mass spectrometry; 10 µM, 18 h, 32 °C, 1 µM protein): 10%
CC(=O)N[C@@H](Cc1c[nH]c2ccccc12)C(=O)N[C@@H](CCC(=O)O)C(=O)N[C@@H](Cc1c[nH]cn1)C(=O)N[C@@H](CC(=O)O)C(=O)Nc1ccc2c(C)cc(=O)oc2c1 — Vmax (Caspase-9 (CASP9, Homo sapiens, UniProt P55211); substrate; concentration not given, full-length): 38.8 ± 1.35 RFU/min
CC(=O)NCC(=O)NCC(=O)N[C@H](C(=O)NCC(=O)NCC(N)=O)[C@@H](C)OP(=O)(O)O — substrate hydrolysis (Phospholysine phosphohistidine inorganic pyrophosphate phosphatase (LHPP, Homo sapiens, UniProt Q9H008); enzyme activity; concentration not given, 90 min, pH 7.8, added: substrate 100 µM): 5.86%
CC(C)P(=S)(NP(=[Se])(C(C)C)C(C)C)C(C)C — ΔG of binding (Alpha-amylase (Bacillus subtilis, UniProt P00691); fluorescence quenching; concentration not given, pH 6.8, 298 K): -4.52 kcal/mol
CC(C)C[C@H](NC(=O)[C@H](C)N)C(=O)N[C@@H](CC(C)C)C(=O)N[C@@H](C)C(=O)N[C@@H](CC(N)=O)C(=O)N[C@@H](Cc1c[nH]cn1)C(=O)N[C@@H](CCC(=O)O)C(=O)N[C@@H](CCC(=O)O)C(=O)N[C@@H](CC(C)C)C(=O)N[C@@H](Cc1ccccc1)C(=O)N[C@@H](CCC(N)=O)C(=O)N[C@H](C(=O)NCC(=O)NCC(=O)NCC(=O)N[C@@H](CO)C(=O)N[C@@H](CSC1CC(=O)N(CCNC(=O)CCCCCN2C(=CC=C3CCCC(C=CC4=[N+](CCCCS(=O)(=O)[O-])c5ccc(S(=O)(=O)O)cc5C4(C)C)=C3Oc3ccc(S(=O)(=O)O)cc3)C(C)(C)c3cc(S(=O)(=O)O)ccc32)C1=O)C(=O)O)[C@@H](C)O (stereo partly shown) — association time constant (Glypican-3 (Homo sapiens, UniProt P51654); binding, flow cytometry; Hep3B; 5 µM, 25 °C): 4.8 min
CC(C)OC(=O)c1ccc(OC(=O)C2CCN(C(=O)OCc3ccccc3)CC2)cc1 — inhibitory concentration (ATP-dependent Clp protease proteolytic subunit (clpP, Staphylococcus aureus, UniProt Q2G036); enzyme activity, inhibitor): < 1 µM
CC(C)C[C@H](NC(=O)[C@H](CCC(=O)O)NC(=O)[C@H](C)NC(=O)[C@H](CCC(=O)O)NC(=O)[C@H](CCC(=O)O)NC(=O)[C@H](Cc1c[nH]cn1)NC(=O)[C@H](CCCNC(=N)N)NC(=O)[C@H](CCC(=O)O)NC(=O)[C@H](CC(N)=O)NC(=O)[C@H](CCCCN)NC(=O)[C@H](CC(C)C)NC(=O)[C@H](CCCNC(=N)N)NC(=O)[C@H](CCC(N)=O)NC(=O)[C@H](CC(C)C)NC(=O)[C@H](CCC(=O)O)NC(=O)[C@H](C)NC(=O)[C@H](CC(N)=O)NC(=O)[C@H](C)NC(=O)[C@@H](NC(=O)[C@H](CC(C)C)NC(=O)[C@H](CCCCN)NC(=O)[C@H](CCC(=O)O)NC(=O)[C@@H](NC(=O)[C@H](CO)NC(=O)CN)C(C)C)[C@@H](C)O)C(=O)N[C@@H](CCC(=O)O)C(=O)N[C@@H](CCCNC(=N)N)C(=O)N[C@@H](CC(C)C)C(=O)N[C@@H](CCCCN)C(=O)N[C@@H](CO)C(=O)N[C@@H](CCC(=O)O)C(=O)N[C@@H](Cc1ccc(O)cc1)C(=O)O — kon (Plasminogen (PLG, Homo sapiens, UniProt P00747, C188G/E240D/L256Y); binding, SPR; pH 7.4): 36200 M⁻¹ s⁻¹
Cc1cc(O)cc(C)c1C[C@H](N)C(=O)N1Cc2ccccc2C[C@H]1C(=O)NCC(=O)NCc1ccccc1 — remaining activity (Oprd1; adenylyl cyclase activity, agonist; C6 cells expressing Oprd1; concentration not given, added: forskolin; reference: forskolin control): 72 ± 2%
CCCCCCCCCCCCCCCCSCc1cc2cc(c1)CSC[C@H](N)C(=O)NCCCCCC(=O)N[C@@H](Cc1ccccc1)C(=O)N[C@@H](CC(C)C)C(=O)N[C@@H](Cc1ccccc1)C(=O)N[C@@H](CCCNC(=N)N)C(=O)N1[C@@H](C[C@@H]3CCCC[C@@H]31)C(=O)N[C@@H](CCCNC(=N)N)C(=O)N[C@@H](CC(N)=O)C(=O)NCCCCCC(=O)N[C@H](C(N)=O)CSC2 — Emax (Neuromedin-U receptor 1 (NMUR1, Homo sapiens, UniProt Q9HB89); calcium signalling, agonist; HEK293 expressing receptor; 10 µM; reference: human NmU): 96.4 ± 7.7%
CC(C)C[C@H](N)C(=O)Nc1ccc2c(CC(N)=O)cc(=O)oc2c1 — relative hydrolysis rate (Aminopeptidase N; enzyme activity, substrate; 3 µM, pH 7.5, 37 °C; reference: L-hArg-ACC): < 20%
CC(C)CN(Cc1ccc(F)cc1)c1nc(C#N)nc(N2CCOCC2)n1 — selectivity ratio (CPL (Toxoplasma gondii, UniProt Q6DMN0); enzyme activity, inhibitor; reference: human over Toxoplasma IC50): 0.03
Nc1nc2c([C@@H]3O[C@@H]4COP(=O)(O)O[C@H]5[C@@H](O)[C@H](n6cnc7c(=O)[nH]c(N)nc76)O[C@@H]5COP(=O)(O)O[C@H]4[C@H]3O)scc2c(=O)[nH]1 — cleavage rate constant k2 (Cyclic di-GMP phosphodiesterase RocR (rocR, Pseudomonas aeruginosa, UniProt Q9HX69); substrate, HPLC; 10 µM, added: 100 nM enzyme): 5 ± 0.57 s⁻¹
CC[C@@H](C)[C@@H](NC(=O)[C@@H](CC(N)=O)NC(=O)[C@@H](CC(N)=O)NC(=O)[C@H](N)CCCNC(N)=O)C(=O)N1C[C@@H](n2cc([C]34[CH]5[CH]6[CH]7[CH]3[Fe]6754389%10[CH]4[CH]3[CH]8[CH]9[CH]4%10)nn2)C[C@H]1C(=O)N[C@@H](Cc1csc2ccccc12)C(=O)N[C@H](CO)C(N)=O (stereo partly shown) — binding entropy term -TΔS (Envelope glycoprotein gp160 (env, Human immunodeficiency virus type 1 group M subtype B, UniProt P35961); ITC; concentration not given, pH 7.4, 25 °C): 5.7 ± 2.2 kcal/mol
CCN(Cc1ccccc1)C(=O)CCc1nc(CN2CCN(C(=O)Cc3ccc(OC)c(OC)c3)CC2)no1 — activation V1/2 (Potassium voltage-gated channel subfamily KQT member 4 (KCNQ4, Homo sapiens, UniProt P56696); potassium current, whole-cell patch clamp; CHO, stable; 300 nM): -31.8 ± 1.13 mV
CC(=O)NC(Cc1ccc(Br)c(Cl)c1)C(=O)N[C@@H](C)C(=O)N1CCC[C@H]1C(=O)N1CCC[C@H]1C(=O)N[C@@H](CCC(=O)O)C(=O)N[C@@H](Cc1c[nH]cn1)C(=O)N[C@@H](CO)C(=O)N[C@H](C(=O)N[C@@H](C)C(N)=O)[C@@H](C)OP(=O)(O)O (stereo partly shown) — inhibition (Tyrosine-protein kinase receptor TYRO3 (TYRO3, Homo sapiens, UniProt Q06418); 10 µM): 0.25 ± 0.01%
CCCCCCCCNP(=O)(Oc1ccccc1)O[C@@H]1O[C@H](CO)[C@@H](O)[C@H](O)[C@H]1F (stereo partly shown) — kinact/Ki (Lysosomal acid glucosylceramidase (GBA1, Homo sapiens, UniProt P04062); enzyme activity, irreversible inhibitor; pH 5.5, 37 °C, added: 2,4-dinitrophenyl beta-D-glucopyranoside): 6930 M⁻¹ s⁻¹
CCC[C@H](N)C(=O)Nc1ccc2c(CC(N)=O)cc(=O)oc2c1 — Km (Aminopeptidase N; enzyme activity, substrate; pH 7.5, 37 °C): 28.8 ± 0.8 µM
O=C(c1ccc2c(c1)c1ccccc1n2CCN1CCCCC1)c1cccc2ccccc12 — Emax (Cannabinoid receptor 1 (CNR1, Homo sapiens, UniProt P21554); GTPγS binding, agonist; cell membranes): 96.5%
Cc1cc(O)cc(C)c1CC(N)C(=O)NC1CCNc2c(Cc3ccccc3)cc(Cc3ccccc3)cc21 (stereo not shown) — maximal stimulation (Oprd1; GTPγS binding, agonist; C6 cells expressing DOR; reference: DPDPE at 10 µM): 42%
CC(=O)N[C@H]1C(O)O[C@H](CO)[C@@H](O[C@@H]2O[C@H](CO)[C@H](O)[C@H](O)[C@H]2O)[C@@H]1O (stereo partly shown) — stoichiometry (Galectin-3 (LGALS3, Homo sapiens, UniProt P17931); ITC): 1.08
COc1ccc(N2CCN(C(=O)ON3C(=O)C4CN(Cc5ccc(Oc6ccccc6)cc5)CCN4C3=O)CC2)cc1 (stereo not shown) — FP probe reactivity (Androgen-induced gene 1 protein (Homo sapiens, UniProt Q9NVV5); inhibitor, biochemical; concentration not given): no inhibition
CC[C@H](C)[C@H](NC(=O)[C@H](Cc1c[nH]cn1)NC(=O)[C@H](CCCCNC(=O)[C@@H](NC(=O)[C@H](CCCCN)NC(=O)[C@H](Cc1ccccc1)NC(=O)[C@H](CCCCNC(=O)[C@H](CC(C)C)NC(=O)[C@@H]1CCCN1C(=O)[C@H](CCCCN)NC(=O)C[C@@H]1O[C@@H](C)[C@@H](O)[C@@H](O)[C@@H]1O)NC(=O)[C@H](CC(C)C)NC(=O)[C@@H]1CCCN1C(=O)[C@H](CCCCN)NC(=O)C[C@@H]1O[C@@H](C)[C@@H](O)[C@@H](O)[C@@H]1O)[C@@H](C)CC)NC(=O)[C@@H](NC(=O)[C@H](CCCCN)NC(=O)[C@H](Cc1ccccc1)NC(=O)[C@H](CCCCNC(=O)[C@H](CC(C)C)NC(=O)[C@@H]1CCCN1C(=O)[C@H](CCCCN)NC(=O)C[C@@H]1O[C@@H](C)[C@@H](O)[C@@H](O)[C@@H]1O)NC(=O)[C@H](CC(C)C)NC(=O)[C@@H]1CCCN1C(=O)[C@H](CCCCN)NC(=O)C[C@@H]1O[C@@H](C)[C@@H](O)[C@@H](O)[C@@H]1O)[C@@H](C)CC)C(N)=O — relative potency per fucoside (Fucose-binding lectin PA-IIL (lecB, Pseudomonas aeruginosa, UniProt Q9HYN5); binding, isothermal titration calorimetry; divided by fucoside copies; reference: monovalent fucoside KD over ligand KD): 2.9
CC[C@H](C)[C@H](NC(=O)[C@H](C)NC(=O)[C@H](CCCNC(=N)N)NC(=O)[C@@H](NC(=O)[C@H](CCCCN)NC(=O)[C@H](CC(N)=O)NC(=O)[C@H](CCCNC(=N)N)NC(=O)[C@@H](NC(=O)[C@@H](NC(=O)[C@H](CCC(=O)O)NC(=O)[C@H](CCCCN)NC(=O)[C@H](CCCNC(=N)N)NC(=O)[C@H](C)NC(=S)Nc1ccc2c(c1)C(=O)OC21c2ccc(O)cc2Oc2cc(O)ccc21)[C@@H](C)CC)[C@@H](C)CC)[C@@H](C)CC)C(=O)NCC(=O)N[C@@H](CCCCN)C(=O)N[C@@H](CCSC)C(=O)N[C@@H](C)C(=O)N[C@@H](CCCNC(=N)N)C(=O)N[C@H](C(=O)N[C@@H](Cc1ccccc1)C(=O)N[C@@H](CO)C(=O)N[C@H](C(=O)N[C@@H](CC(C)C)C(=O)N[C@@H](CCCNC(=N)N)C(=O)O)C(C)C)C(C)C — Kd ratio (Calmodulin, N-terminal domain (CAM, Paramecium tetraurelia, UniProt P07463); binding, fluorescence anisotropy; Paramecium; reference: Ca2+-saturated over apo): ~100 fold
S=C(NCc1ccccn1)NCc1ccccn1 — inhibition (Acetylcholinesterase (ACHE, Homo sapiens, UniProt P22303); enzyme activity, inhibitor; 250 µg/mL): 59.2%
